Assay results from different studies.
Each numbered part is a random draw from the data of one study; scales do not carry over between parts.

Study 1
Target: Histone acetyltransferase KAT6A, winged helix 1, GST fusion (KAT6A, Homo sapiens, UniProt Q92794, residues 1-85)
Method: protein binding microarray
Form: double-stranded DNA, one strand shown
Sample: in vitro
Tested at: not given
Notes: 8-mer, flanks averaged, mean of 2 arrays, mostly near background
Reference: not given
Direction: higher = stronger binding
Measurement: E-score
Residues (chain): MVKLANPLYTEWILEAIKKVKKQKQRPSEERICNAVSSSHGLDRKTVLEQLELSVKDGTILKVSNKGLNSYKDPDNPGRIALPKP
Strand = AGCGGTCA; result = 0.299
Strand = CCACTTCG; result = -0.096
Strand = AGGAGTTA; result = -0.158
Strand = AAGACGCA; result = -0.0133
Strand = CCCGATGC; result = 0.235
Strand = GCTAAACC; result = 0.0629
Strand = CTACGTAC; result = -0.0407
Strand = AAAAAGCA; result = -0.22
Strand = AAGCGATC; result = 0.105
Strand = CAACCCCA; result = -0.0757
Strand = AACGGGTA; result = 0.221
Strand = AGACTACG; result = 0.0537
Strand = CGTTGCAA; result = -0.154
Strand = ATTTGATA; result = -0.193
Strand = AACATGTG; result = 0.00134
Strand = CGCACCCG; result = 0.373
Strand = AACCAGAG; result = -0.226
Strand = CGTACAAC; result = 0.0987
Strand = CCGCGTTA; result = 0.356
Strand = CATGCAGC; result = 0.124
Strand = AAATGTAC; result = -0.183
Strand = AGTAACGA; result = -0.0494
Strand = ACTCTTTA; result = -0.119
Strand = CAGGAGCA; result = -0.176
Strand = ACTGACCG; result = 0.231

Study 2
Target: RNA binding protein fox-1 homolog 2, RRM domain, GST-SBP tag (RBFOX2, Homo sapiens, UniProt O43251-10, residues 100-194)
Method: RNA Bind-n-Seq
Form: RNA
Sample: in vitro
Tested at: 365 nM
Notes: natural RNA segment, single round, ends assumed
Reference: no-protein control
Direction: higher = stronger binding
Measurement: RBNS enrichment (R)
Shared flanks, not repeated: GGGAGUUCUACAGUCCGACGAUC … UGGAAUUCUCGGGUGCCAA
Target sequence (chain): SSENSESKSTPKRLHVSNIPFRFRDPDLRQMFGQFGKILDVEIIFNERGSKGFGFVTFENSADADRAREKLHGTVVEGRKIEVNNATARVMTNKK
Strand = AAUGCACUUAUUUUUAAACGAGCAUGACAUGAGGUGUGUUUAUAAAUUAUCAGGGAUUUUAUGUAUUGUACAUAGAUGACAAUAGGAAAUUGUUUAUUUCAAGAAAUAGC; result = 12.7
Strand = GGAAGAUGUGGAAAAGAACCGCAAGGUGGUGGCAGAGAACCUGGAGAAGGUCCAGGCUGAGGCGGAGAGAUUGGACCAGGAGGAAGCUCAGUGGGUACCAGCGGGAGUAU; result = 0.843
Strand = CAACUGGAUGGUUUUUGAUUGAAGCCUAGAACAUCUGUAGAGACAAACUCUACCCAGUCUUUUCUAGACCCUCAACUAUCUCCAGUGUUGUUGUUUAAUCGUAGCCGGAU; result = 0.383
Strand = CUUGAGUCCUGUUGGACGUGAUAGUGUUUCUUGAUCUGUAUGCCACAGUGCCUUUAUGGCCAGUUUGAGUCCUACCUACUUCAGUUUUUAUGUUCCCACUCCUCCUGUGU; result = 0.615
Strand = UGGGUGGCCAUUGGUAAAUGUUAGGAACACACCAGGUCACCUGACAUCCCAAGAAUGCUCACAAACCUGCAGGCAUAUCAUUGGCGUAUGGCACUCAUUAAAAAGGAUCA; result = 0.549
Strand = UCAUGGGUGUCCCCACCCACUCCUCAGUGUUUGUGGAGUCGAGGAGCCAACCCCAGCCUCCUGCCAGGAUCACCUCGGCGGUCACACUCCAGCCAAAUAGUGUUCUCGGG; result = 0.236
Strand = UCGGGUAUGCAUGUCCGGUAGGCAUAGCUGUCACAAAGCGGGUGUACUUAUGGUGAAAGAGGACAUUUUUUUUUUCUUCAGGAUAGUUGAAAGGGCAGGCCCAACGGCUG; result = 2.36
Strand = AUCACUGAAAAUAUGACUAAUAAAUGUCUCUUCCUUUUUCUUCCUGUCUCCAUCCCCAUGCCUUGUUCUAACUUGCAUACUUGUCCUUUCUGCUCGAAGCUGUCACUUCC; result = 2.74
Strand = CAGAAUUGAGAAGAACGUGCCAAAUGAGAAUCAAUUAGGUGGAUUUUUGGCUGUCAUUUCAAAAGUGGAAUAAAUUUAUUAAUUUAGUAGUACUAAAUGGUAUCCUUAGA; result = 0.443
Strand = CCCUCUUGGGUUCCUAAGUUCUAUGUUCCUUAGAGGUUCUAGCAUUAAACAGAUAAAGCCCUUCAUGGUCCUGGCUGAGGAAGAGUCUUGCUAGGGGGAUUCAGGGAAGA; result = 0.542
Strand = ACAGUGCCGCGUGCGAGAUGAGCUCGAACACUGCCCGCCUUACUGCCGCCUACCCCGCCCGCCACGCCGCCGUCGAUGCCAGCGCUGUCCCCACGGGUACCAGGAAGUGC; result = 0.389
Strand = UGUUGCUGCCAUUUUGCAUUUUUGAAUCAUCUUGUGUAAUUGUCACCAUGAAAGUGUUACUCAGAAUUGUCAUAGAUUUUCUCUUCUUUGUGCAAAAACAUGGAAAAUUG; result = 10.3

Study 3
Target: RING finger protein unkempt homolog, zinc fingers 1-6, SBP tag (UNK, Homo sapiens, UniProt Q9C0B0, residues 30-357)
Chain of UniProt Q9C0B0 (30-357, looked up): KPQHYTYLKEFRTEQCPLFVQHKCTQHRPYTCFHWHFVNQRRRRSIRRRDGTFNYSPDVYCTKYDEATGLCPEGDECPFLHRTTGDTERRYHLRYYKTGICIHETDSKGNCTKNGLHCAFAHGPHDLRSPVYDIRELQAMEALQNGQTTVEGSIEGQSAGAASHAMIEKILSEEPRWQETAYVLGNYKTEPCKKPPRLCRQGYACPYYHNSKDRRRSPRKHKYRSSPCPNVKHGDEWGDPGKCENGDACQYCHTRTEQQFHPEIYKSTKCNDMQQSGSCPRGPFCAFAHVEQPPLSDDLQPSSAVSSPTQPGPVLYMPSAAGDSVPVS
Method: RNA Bind-n-Seq
Form: RNA
Sample: in vitro
Tested at: 100 nM
Notes: RNA with constant flanks, vertebrate orthologous sites, ends assumed
Reference: input RNA pool
Direction: higher = stronger binding
Measurement: bound/input enrichment
Shared flanks, not repeated: GGGAGUUCUACAGUCCGACGAUC … CAACAGAGGAUUGAGCAUCA
Strand = GAAAUCCCCCAUUGUCACUGAGAACCACCAAAUCUGACUUUUACAUUUGGUCUCAGAAUUUAGGUUCCUGCCCUGUUGGUUUUUUUUUUUUUUUUUUAAACAGUUUUCAAAAGUUCUUAA; result = 1.61 ratio
Strand = UAUCUUUAGGAUGAAGCUCUUACAUCAAGUGUCACGAGUUUGGAAAACAGAUGGGCUGACUAGUUGUUCUUAUAAAUUACUGUCUGUGGAACACAAUCCUUUAUAUAUCAACAUCACAGU; result = 0.758 ratio
Strand = CUCUAUGGGCCUCGCAGAGUUGAAAUAAUGGAAGAGGAAAGUGAACAGUAAUCUUCAUUUUAGUAUUUAUGUUUAGGUGUGAAAUAAAUGUUACUUGUUGAUCAUUUCUAUAAUCCAGAG; result = 0.698 ratio
Strand = CCAGUUUGUAUGUACAUUAUUCACAUUCCUCUCUGUUGUGUUUGGGGGAAGAGAGACAUUUUAGCCUUUUUUAAAGUUAUUGAUUUAAUUUCAUGUUAUUUGGUUGCAUGACGUUCCCGU; result = 2.18 ratio
Strand = CUACUAUAAACAACUCAGGGCAGUAUUCUCGAUAUCCUUACAGUAACCUAAAUCAGGGAUUAGUUAACAAUACAGGGAUGAAUCAGAAUUUAGGCCUUACAAGUAAUACUCCAAUGAACC; result = 1.02 ratio
Strand = GUACUGCCCAUGCAAAUCCCACAACACUGAAUGCAAAGUAGCAAUUUCCAUAGUCACAGUUAGGUAGCUUUAGGGCAAUAUUGCCAUGGUUUUACUCAUGUGCAGGUUUUGAAAAUGUAC; result = 1.63 ratio
Strand = AAAUCGAAACAAUAGAGCUCUGCAGAGUUCCUUUAAAACUGGAAAAUUCUAGCUGCAAAAUAGAAGAACUGUAUCAUGAAGCAAAGUUCUCAUACACUGCAGAAACAAAAGACAAUACAG; result = 0.23 ratio
Strand = AUGAAUAUAUUCACUCAGUUAAAAUUAUUUAGAUACAAAUUAUUGUUUAUGUUUUCUUUCAGCAAUCUCCUAUUUUUAUCCAUUUGAAAAUGCCAGUUUUGUGUGGUUUCUUAGCAUAUC; result = 0.938 ratio
Strand = CUACCGCGUACCUGCUGUAUAAUAAACAACAAGACACUUGUCAGCUGUUGAUACAGGUGUUAGUCCCAAACCACUUUUUAUAUGUUUUAAAUUUUGAAAUUCAAGUGUAUCUGCCAUAAC; result = 1.29 ratio
Strand = UUAAACUUCUUUUUUUUAAUUUAAUUUUUUCCUUUCAGGGGUAAAGUUUGCUUUACCAAAUAGUGAUUGUAACAGAUUGAUCUGUUUUGGAUGUUGCUAUAGUGACAUGCAGUUCUAUAU; result = 1.76 ratio
Strand = UCAUUGUAAUGCACAAAUCAUCUUACUUCUCAAUUAUCUAUGGUGGUAACUAGUCUGCACUAGUAAAAUCAUUUACUCUUAUCUUUUGAAAUACCUGCUUUGUCUGAUACCUGAAACACG; result = 1.15 ratio

Study 4
Target: Hepatocyte nuclear factor 3-alpha (Foxa1, Mus musculus, UniProt P35582, residues 1-468, full length assumed)
Method: EMSA with sequencing
Form: double-stranded DNA, one strand shown
Sample: in vitro
Tested at: 10 and 20 nM
Notes: whole designed probe, mean of two concentrations, ends assumed
Reference: negative control set to 0
Direction: higher = stronger binding
Measurement: normalised bound fraction
Shared flanks, not repeated: GTGAGCGGTGCCCATTGATGGGGAAC … TTTCACTGGGATCGTGGGGAC
Target sequence (chain): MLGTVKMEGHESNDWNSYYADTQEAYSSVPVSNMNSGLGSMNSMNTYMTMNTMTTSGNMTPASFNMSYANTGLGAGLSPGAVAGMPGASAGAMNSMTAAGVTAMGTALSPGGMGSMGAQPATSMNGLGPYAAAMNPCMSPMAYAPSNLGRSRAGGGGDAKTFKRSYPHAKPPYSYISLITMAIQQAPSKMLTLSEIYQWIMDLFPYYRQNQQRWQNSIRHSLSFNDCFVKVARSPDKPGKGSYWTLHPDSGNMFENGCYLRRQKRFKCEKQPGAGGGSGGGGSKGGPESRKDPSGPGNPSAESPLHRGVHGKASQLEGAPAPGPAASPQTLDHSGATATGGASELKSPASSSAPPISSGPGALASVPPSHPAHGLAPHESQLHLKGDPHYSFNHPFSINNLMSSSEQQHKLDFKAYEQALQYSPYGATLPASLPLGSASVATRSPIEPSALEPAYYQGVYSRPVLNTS
Strand = TAACCGGAGCGTGCACACCCGCCTGCGAGGCTGACCCGAGCGCGTCCCACCCAAGGTCGCCCAGCCCCGCGGGCGTTTACTTTTCAAAGGTCGTGTGTACACAGTCTGAGCCGGAGCTGCCCCTTCACTTCTGGAGCCTCGCCCAACTTCTCACCCTCGGCTCGCCCGCCGGCGCAGCCCCTGGGAGTTCCGT; result = 0.217 ratio
Strand = CATCAGCAGGCTTCCTCTGAGAAGTTTCCCATCGACGTATCCTCTTTCAAGGGCCTTCCAAGCATGGAGACATTTCCTCAGAGATAATAAGAGTAATCTGGGAACTAAGGCCTCCCAGACCTTGACAGCCTCTGCCTGAGTGCACAGATGCAGCTGGGCTGTGGCAGCTCCGACTCGCAGAGCCAGGCGCCGC; result = -0.0786 ratio
Strand = AAGTTGAATTGCTTGTCACGTACCATAGACTGAGGTCTGTGGCTGCAGTTGCCTGCCATTTCAGACAGATGATTCATCTTATAAACAGATTATGTAATTTTGTTATTGATAAATACAGTATGGTACTGTAAATGTATTTTCTCTTTATGATTTTCTTTAAAATATTTTTCTTTCTCGGCCAGCACTTTGGGAG; result = 0.0334 ratio
Strand = TCCACAGCTACCCTTGGTTCCTTCAATCCCTCTTCTCCTAAAACAAACAAAAGCATGTTCCTTTGTCATTAAAAAAAAAAAAAAAAAGCAAAGTAATCTTGCATCACACAGGCCAGCAGCCAGAAGTTTCCAATGCTCAGTGTCTGCTGCATTCTACGCCTCTATCACACAAAACTCACCACCCTCTAGTTCT; result = 0.439 ratio
Strand = TAGTGGTCTGAGTGTGTGGGAGTGGAGCTAAGCCTCCAGGACGATAGACTGTAGGACTTTGGATACTGGTTCCCAGCAAAAGATAAATGCCAATATTTGCATTGGGTATGGGGGGAGTGAACACTTCCCACAAAGGCCTTTGTTCTTTTGCCCACAGCTTGTTACTTAGGCAACTGACAATTGAAGTTTGTGG; result = 0.302 ratio
Strand = AGGACTAGAGATGGAAAAGTGGAGACCTCGGGAGAGAAAAGTAAAAATAGGTGAGAATGTTCCATCTGAATCCCTGATGGGGACTGTGGGGCTTGTTTACTTAAGGTTCTCCTTTGGGGAGGGCAGACAAGAACCAGTCCCAGCTGGGACTCTGGTGCAGAGGGATGGAAGGTGATCGTTTTGTGTGAGTCTC; result = 0.467 ratio
Strand = TTAAGAAAAGTTGAAACAGGAATTGCTTGATAATCTTGAAAATATGCATGTATGTATGTTTGTTTAATGACTAAATGTATACTATTTGAGAAAGTAAATAAGGAGGGTAGGGGGCAGAAGCCAGATTCAGATTTTTGTGTGATGAAGAATGAATAAATGAATGTTTAGGAGTTGAGGAAATGGAAGAAGTGTT; result = 0.497 ratio
Strand = CAGCTTGGGGCAGACAGTTGTTAGGAGATAAAACTCTTAGCTGCTGGAGTTCTGGGCTTTATTTCTTCTTCAACAAAGCTCTGACTCAGTTAGGTAATCTCAGGCACTAGCAAGCCTGATCATTTCCAGAGAGTTCCCCAGGGACAGACACAAAGGAATACAGAAGATAATAGATTAATTAAACATGCTGCCC; result = 0.0167 ratio

Some of these lines once more (study 1):
Strand = CGTACAAC; result = 0.0987
Strand = CCGCGTTA; result = 0.356
Strand = CATGCAGC; result = 0.124
Strand = AAATGTAC; result = -0.183
Strand = AGTAACGA; result = -0.0494
Strand = ACTCTTTA; result = -0.119
Strand = CAGGAGCA; result = -0.176
